Assay results of several laboratories.
Each line is one published result; not all experiments were run side by side.

SMILES | organism | assay | system | conditions | quantity | value
CC[C@H](C)[C@H](NC(=O)[C@H](CC(C)C)NC(=O)[C@H](CCCNC(=N)N)NC(=O)[C@@H](N)CCCNC(=N)N)C(=O)N[C@@H](CCCNC(=N)N)C(=O)N[C@H](C(=O)N[C@@H](CCCCN)C(=O)N[C@H](C(=O)NCC(=O)N1CCC[C@H]1C(=O)N[C@H](C(=O)N[C@H](C(=O)N[C@@H](Cc1ccc(O)cc1)C(=O)N[C@@H](CCCCN)C(=O)N[C@@H](Cc1ccc(O)cc1)C(=O)N[C@@H](Cc1ccccc1)C(=O)N[C@@H](CCCCN)C(=O)N[C@@H](CCCCN)C(=O)N[C@@H](CCC(N)=O)C(=O)N[C@@H](CC(C)C)C(=O)N[C@@H](CC(C)C)C(=O)N[C@@H](CCCCN)C(=O)N[C@@H](CCCCN)C(N)=O)[C@@H](C)CC)[C@@H](C)CC)[C@@H](C)O)[C@@H](C)O | Staphylococcus aureus | broth microdilution | KCTC 1621, Mueller-Hinton broth | 24 h, 37 °C | MIC | 128 µM
O=C(O)[C@]1(Cc2cccc(Nc3nccs3)n2)CC[C@@H](Oc2cccc(Cl)c2F)CC1 | Staphylococcus aureus |  | NCTC 8325 |  | MIC | > 30 µM
CC[C@H](C)[C@H](NC(=O)[C@H](CCCCN)NC(=O)[C@H](CC(=O)O)NC(=O)[C@H](CC(C)C)NC(=O)[C@@H](NC(=O)[C@H](CC(N)=O)NC(=O)[C@H](CC(C)C)NC(=O)[C@@H](NC(=O)[C@H](Cc1ccccc1)NC(=O)[C@H](CCCCN)NC(=O)[C@H](CCCCN)NC(=O)CNC(=O)[C@H](C)NC(=O)[C@H](CC(N)=O)NC(=O)[C@H](CCCCN)NC(=O)[C@H](Cc1ccccc1)NC(=O)[C@H](CC(N)=O)NC(=O)[C@H](CCC(=O)O)NC(=O)[C@H](Cc1c[nH]c2ccccc12)NC(=O)[C@H](CC(C)C)NC(=O)[C@@H](N)CO)[C@@H](C)CC)[C@@H](C)CC)C(=O)N[C@@H](CCCNC(=N)N)C(N)=O | Staphylococcus aureus |  | ATCC 6538 | overnight, 37 °C, added: 150 mM NaCl | MIC | 4 µM
CC[C@H](C)[C@H](NC(=O)[C@H](Cc1ccccc1)NC(=O)[C@@H](NC(=O)[C@H](Cc1ccccc1)NC(=O)[C@@H]1CCCN1C(=O)[C@@H](NC(=O)[C@H](C)N)[C@@H](C)CC)[C@@H](C)CC)C(=O)N[C@@H](Cc1c[nH]c2ccccc12)C(=O)N[C@@H](CCCNC(=N)N)C(=O)N[C@@H](CC(C)C)C(=O)N[C@@H](CC(C)C)C(=O)N[C@@H](CCCNC(=N)N)C(=O)N[C@@H](CCCCN)C(=O)NCC(N)=O | Staphylococcus aureus | broth microdilution | ATCC 19609 | 18 h, 37 °C | MIC | 1.88 µM
CC(CCc1ccccc1)NC(C)C(O)c1ccc(O)cc1 (stereo not drawn) | Plasmodium falciparum |  | 7G8 |  | IC50 | 7.94 µM
CC[C@H](C)CCCCC(=O)N[C@@H](CCN)C(=O)N[C@H](C(=O)N[C@@H](CCN)C(=O)N[C@H]1CCNC(=O)[C@H]([C@@H](C)O)NC(=O)[C@H](CCN)NC(=O)[C@H](CCN)NC(=O)[C@H](CC(C)C)NC(=O)[C@@H](Cc2ccccc2)NC(=O)[C@H](CCN)NC1=O)[C@@H](C)O | Staphylococcus aureus | broth microdilution | ATCC 6538 | 24 h, 37 °C | MIC | 32 µg/mL
CC[C@H](C)[C@H](N)C(=O)N[C@@H](CO)C(=O)N[C@@H](Cc1ccccc1)C(=O)N[C@@H](CC(C)C)C(=O)NCC(=O)N[C@@H](CO)C(=O)N[C@@H](CCCCN)C(=O)N[C@H](C(=O)N[C@H](C(=O)N[C@H](C(=O)N[C@@H](CC(C)C)C(=O)N[C@@H](CC(C)C)C(=O)N[C@@H](CCCCN)C(=O)N[C@@H](CCCNC(=N)N)C(=O)N[C@@H](CCCNC(=N)N)C(=O)N[C@@H](CCCCN)C(=O)N[C@@H](CCCNC(=N)N)C(=O)N[C@@H](CCCCN)C(=O)N[C@@H](CCCNC(=N)N)C(=O)N[C@@H](CCCCN)C(N)=O)C(C)C)C(C)C)C(C)C | Staphylococcus aureus | broth microdilution |  | 24 h, 37 °C | MIC | 16 µM
CC[C@H](C)[C@H](N)C(=O)N[C@@H](CC(C)C)C(=O)NCC(=O)N[C@H](CCCNC(=N)N)C(=O)N[C@H](C(=O)N[C@@H](Cc1c[nH]c2ccccc12)C(=O)N[C@@H](CCCCN)C(=O)NCC(=O)N[C@H](C(=O)N[C@@H](CCCCN)C(=O)N[C@@H](CC(=O)O)C(=O)N[C@H](C(=O)N[C@@H](CC(C)C)C(N)=O)[C@@H](C)CC)[C@@H](C)CC)[C@@H](C)CC | Staphylococcus aureus | broth microdilution | ATCC 25923 | added: KCl 4.5 mM | MIC | 12.5 µM
CC[C@H](C)[C@H](NC(=O)CN)C(=O)NCC(=O)N[C@@H](C)C(=O)N[C@H](C(=O)N[C@@H](CC(C)C)C(=O)N[C@@H](CCCCN)C(=O)N[C@H](C(=O)N[C@@H](CC(C)C)C(=O)N[C@H](C(=O)N[C@H](C(=O)NCC(=O)N[C@@H](CC(C)C)C(=O)N1CCC[C@H]1C(=O)N[C@@H](C)C(=O)N[C@@H](CC(C)C)C(=O)N[C@H](C(=O)N[C@@H](CO)C(=O)N[C@@H](Cc1c[nH]c2ccccc12)C(=O)N[C@H](C(=O)N[C@@H](CCCCN)C(=O)N[C@@H](CCCNC(=N)N)C(=O)N[C@@H](CCCCN)C(=O)N[C@@H](CCCNC(=N)N)C(=O)N[C@@H](CCC(N)=O)C(=O)N[C@@H](CCC(N)=O)C(N)=O)[C@@H](C)CC)[C@@H](C)CC)[C@@H](C)O)[C@@H](C)O)C(C)C)C(C)C | Staphylococcus aureus | broth microdilution | 29213, Mueller-Hinton broth | 24 h, 37 °C, lowest concentration, 95% inhibition, added: BSA | MIC | 2 µM
CC(C)C[C@@H](NC(=O)CNC(=O)[C@@H](CCCCN)NC(=O)[C@@H](CC(C)C)NC(=O)[C@@H](CCCCN)NC(=O)[C@@H](CCCNC(=N)N)NC(=O)[C@@H](CC(C)C)NC(=O)[C@@H](CC(C)C)NC(=O)[C@@H](CCCNC(=N)N)NC(=O)[C@H](N)CCCNC(=N)N)C(=O)N[C@H](CCCCN)C(=O)N[C@H](CCCCN)C(=O)N[C@H](Cc1ccc(O)cc1)C(=O)N[C@H](CC(C)C)C(=O)N[C@H](Cc1ccc(O)cc1)C(=O)N[C@H](Cc1ccccc1)C(=O)N[C@H](CCCCN)C(=O)N[C@H](CC(C)C)C(=O)N[C@H](CCC(N)=O)C(=O)N[C@H](CC(C)C)C(=O)N[C@H](CC(C)C)C(=O)N[C@H](CCCCN)C(=O)N[C@H](CCCCN)C(N)=O | Staphylococcus aureus | broth microdilution | KCTC 1621, Mueller-Hinton broth | added: NH4Cl 6 µM | MIC | 8 µM
CC[C@H](C)[C@H](NC(=O)[C@H](CCCCN)NC(=O)[C@H](CCCNC(=N)N)NC(=O)[C@H](CCCNC(=N)N)NC(=O)[C@H](CC(C)C)NC(=O)[C@H](CCCCN)NC(=O)[C@H](CCCCN)NC(=O)[C@H](Cc1ccccc1)NC(=O)[C@H](CC(C)C)NC(=O)CNC(=O)[C@H](CCCNC(=N)N)NC(=O)[C@@H](N)CCCNC(=N)N)C(=O)N[C@@H](CCCCN)C(=O)N[C@@H](CCCCN)C(=O)NCC(=O)N[C@@H](Cc1ccccc1)C(=O)N[C@@H](CCCCN)C(=O)N[C@@H](CCCCN)C(=O)N[C@H](C(=O)N[C@@H](Cc1ccccc1)C(=O)N[C@@H](CCCCN)C(=O)N[C@@H](CCCNC(=N)N)C(=O)N[C@@H](CC(C)C)C(=O)N1CCC[C@H]1C(=O)N1CCC[C@H]1C(=O)N[C@H](C(=O)NCC(=O)N[C@H](C(=O)NCC(=O)N[C@H](C(=O)N[C@@H](CO)C(=O)O)C(C)C)C(C)C)C(C)C)[C@@H](C)CC | Staphylococcus aureus |  | CMCC 26003 | highest concentration 50 µM | MIC | 2.58 µM
CN1C(=O)Cc2ccc(F)c(CCNCC[C@H]3CN(c4ccc5c(n4)NC(=O)CO5)C(=O)O3)c21 | Staphylococcus aureus |  | ATCC 29213 |  | MIC | 0.06 µg/mL
COc1cc2nc(N3CCN(C(=O)C4COc5ccccc5O4)CC3)nc(N)c2cc1OC (stereo not drawn) | Plasmodium falciparum |  | D10 |  | IC50 | 2.51 µM
CC[C@H](C)[C@H](NC(=O)[C@H](CCCCN)NC(=O)[C@H](CCCCN)NC(=O)CNC(=O)[C@H](CCCCN)NC(=O)[C@H](CC(C)C)NC(=O)[C@H](CCCCN)NC(=O)[C@H](CCCNC(=N)N)NC(=O)[C@@H](NC(=O)[C@H](CC(C)C)NC(=O)[C@H](CCCNC(=N)N)NC(=O)[C@@H](N)CCCNC(=N)N)[C@@H](C)CC)C(=O)N[C@@H](Cc1ccc(O)cc1)C(=O)N[C@@H](CC(C)C)C(=O)N[C@@H](Cc1ccc(O)cc1)C(=O)N[C@@H](Cc1ccccc1)C(=O)N[C@@H](CCCCN)C(=O)N[C@@H](CC(C)C)C(=O)N[C@@H](CCC(N)=O)C(=O)N[C@@H](CC(C)C)C(=O)N[C@@H](CC(C)C)C(=O)N[C@@H](CCCCN)C(=O)N[C@@H](CCCCN)C(N)=O | Staphylococcus aureus |  | KCTC 1621, Mueller-Hinton broth | added: 1 mM MgCl2 | MIC | 16 µM
CC[C@H](C)[C@H](NC(=O)CNC(=O)[C@H](C)NC(=O)[C@@H](NC(=O)[C@@H](NC(=O)[C@@H](NC(=O)[C@H](CCCNC(=N)N)NC(=O)[C@@H](NC(=O)[C@@H](NC(=O)[C@@H](NC(=O)[C@@H]1CCCN1C(=O)[C@H](Cc1c[nH]c2ccccc12)NC(=O)[C@@H](NC(=O)[C@H](CCCNC(=N)N)NC(=O)[C@H](CCCCN)NC(=O)[C@@H](NC(=O)[C@@H](N)CCCNC(=N)N)[C@@H](C)CC)C(C)C)C(C)C)C(C)C)[C@@H](C)CC)[C@@H](C)O)C(C)C)C(C)C)C(=O)N[C@@H](CC(N)=O)C(=O)N[C@@H](CC(C)C)C(=O)N[C@@H](Cc1ccc(O)cc1)C(=O)N[C@@H](CCCNC(=N)N)C(=O)N[C@@H](C)C(=O)N[C@H](C(=O)N[C@@H](CCCCN)C(=O)N[C@@H](CCCNC(=N)N)C(=O)N[C@@H](CCCCN)C(=O)O)[C@@H](C)CC | Staphylococcus aureus | broth microdilution | ATCC 25923, Mueller-Hinton broth | 16 to 20 h, 37 °C | MIC | 0.354 µM
